Published values gathered from unrelated publications.
Numbered parts are unrelated; each lists some results of a single study. Changes are numbered by the printed parent chain.
UniProt P28223, sequence (whole entry, looked up): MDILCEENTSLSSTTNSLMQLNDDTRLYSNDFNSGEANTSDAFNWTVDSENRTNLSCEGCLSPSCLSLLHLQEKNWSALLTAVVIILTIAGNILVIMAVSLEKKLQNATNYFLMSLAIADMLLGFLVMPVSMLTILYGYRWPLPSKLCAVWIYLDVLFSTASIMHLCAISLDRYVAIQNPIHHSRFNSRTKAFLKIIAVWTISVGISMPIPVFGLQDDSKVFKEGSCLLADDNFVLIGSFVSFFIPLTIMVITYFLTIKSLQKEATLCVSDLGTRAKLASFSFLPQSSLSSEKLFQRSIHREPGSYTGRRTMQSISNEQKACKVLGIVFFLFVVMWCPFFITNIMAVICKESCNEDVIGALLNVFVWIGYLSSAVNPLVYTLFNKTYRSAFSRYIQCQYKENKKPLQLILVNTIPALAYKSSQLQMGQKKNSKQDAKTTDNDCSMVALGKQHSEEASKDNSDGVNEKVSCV

Block 1 — target: CCNA2, cyclin fold, Cln2 fusion (human); method: yeast growth competition, sequencing; matrix: yeast; setting: strong parent motif; relative to: not given; direction: higher = stronger binding; starting sequence: viral docking peptide; YKVKRRLVFGADD
Under “normalised enrichment score”, `F9P` is recorded as 0.365.
`G10C` — result for “normalised enrichment score”: 6.04.
For `K4N`, “normalised enrichment score” read 5.65.
Under “normalised enrichment score”, `K4L` is recorded as 2.17.
`L7F`: “normalised enrichment score” 1.45.
Under “normalised enrichment score”, `Y1A` is recorded as 6.65.
Under “normalised enrichment score”, `A11T` is recorded as 6.7.
`R5I`: “normalised enrichment score” 3.45.

Block 2 — read-out: binding; method: phage display NGS; molecule type: peptide; concentration: concentration not given; relative to: input library
Target: UDP-N-acetylglucosamine--peptide N-acetylglucosaminyltransferase 110 kDa subunit (OGT, Homo sapiens, UniProt O15294)
Construct (O15294 1-1046): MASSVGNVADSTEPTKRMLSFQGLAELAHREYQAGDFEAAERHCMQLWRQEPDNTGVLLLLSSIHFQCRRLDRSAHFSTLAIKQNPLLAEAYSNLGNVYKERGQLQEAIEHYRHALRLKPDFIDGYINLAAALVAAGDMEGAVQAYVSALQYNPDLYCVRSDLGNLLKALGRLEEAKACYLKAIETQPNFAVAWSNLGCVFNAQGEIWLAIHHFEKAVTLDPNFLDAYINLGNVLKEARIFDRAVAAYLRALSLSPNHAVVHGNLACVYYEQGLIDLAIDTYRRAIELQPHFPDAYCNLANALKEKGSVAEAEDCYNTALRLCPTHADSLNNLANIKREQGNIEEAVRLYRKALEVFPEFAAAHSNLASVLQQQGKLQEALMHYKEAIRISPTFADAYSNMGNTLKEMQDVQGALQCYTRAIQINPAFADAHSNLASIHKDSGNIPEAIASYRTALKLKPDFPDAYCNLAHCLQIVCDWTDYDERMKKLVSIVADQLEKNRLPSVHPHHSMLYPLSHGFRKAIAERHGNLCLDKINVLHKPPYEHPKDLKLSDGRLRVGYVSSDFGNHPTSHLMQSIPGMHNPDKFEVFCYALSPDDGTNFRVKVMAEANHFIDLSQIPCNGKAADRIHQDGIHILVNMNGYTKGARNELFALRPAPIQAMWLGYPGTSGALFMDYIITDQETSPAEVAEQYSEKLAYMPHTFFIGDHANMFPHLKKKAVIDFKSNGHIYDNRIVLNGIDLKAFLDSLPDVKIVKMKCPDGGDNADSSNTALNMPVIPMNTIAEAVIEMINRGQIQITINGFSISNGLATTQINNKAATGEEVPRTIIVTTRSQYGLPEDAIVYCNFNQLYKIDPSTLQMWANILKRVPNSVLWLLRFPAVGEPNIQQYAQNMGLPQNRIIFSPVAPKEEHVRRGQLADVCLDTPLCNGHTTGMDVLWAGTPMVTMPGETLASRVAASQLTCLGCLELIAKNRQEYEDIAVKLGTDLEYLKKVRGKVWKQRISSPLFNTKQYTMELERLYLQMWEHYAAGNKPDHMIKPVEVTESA
Under “enrichment fold change”, `DFVMPEYIIEYQIRS` is recorded as 5.2.
`VPWQHVHTAHNRWHS`: “enrichment fold change” 2.95.
For `SVMHHHHSATTYLG`, “enrichment fold change” read 6.95.
Under “enrichment fold change”, `WTDHGGNIIHTHHH` is recorded as 54.9.
For `VERWFPPKYQMPIQG`, “enrichment fold change” read 14.8.
`TIEDHVHHHAHRLDR`: “enrichment fold change” 4.87.
`YERDYQHFMPQYQIM`: “enrichment fold change” 2.39.
Under “enrichment fold change”, `YTTHKHHNTTNFVAV` is recorded as 5.84.

Other studies, line by line
For O=C(Nc1cccnn1)N1CCC(=Cc2cccc(Oc3ccc(C(F)(F)F)cn3)c2)CC1, the inhibition was 82.9% (HTR2A (Homo sapiens, UniProt P28223); binding, radioligand binding; 10 µM).
For C[C@@H]1C[C@@H]([C@H](O)CC2CC(=O)NC(=O)C2)C(=O)[C@@H](C)C1, the viability was 13.7% (HaCaT; 100 µM, 36 h).

For quick reference, copied from above (block 2):
For `VERWFPPKYQMPIQG`, “enrichment fold change” read 14.8.
`TIEDHVHHHAHRLDR`: “enrichment fold change” 4.87.
